# Assay results collected from several papers.
# Compare with care: the assays were run in different laboratories. ± gives the spread as reported.
# Organism: Acinetobacter baumannii
SMILES,test,system,setting,scale,quantity,value
Oc1cc(C(F)(F)F)ccc1-c1nc2c(C(F)(F)F)cc(C(F)(F)F)cc2[nH]1,colistin potentiator,"AB 17978, mcr-1, colistin-resistant",5 µM,,colistin MIC,0.5 µg/mL
CC[C@H](C)[C@H](NC(=O)[C@H](CCCCN)NC(=O)[C@@H](NC(=O)[C@H](CS)NC(=O)[C@H](CCCNC(=N)N)NC(=O)[C@H](CCCNC(=N)N)NC(=O)[C@H](CC(N)=O)NC(=O)[C@H](CCCNC(=N)N)NC(=O)[C@H](CS)NC(=O)[C@@H](NC(=O)[C@H](CO)NC(=O)[C@@H](NC(=O)[C@H](CS)NC(=O)[C@H](CCCCN)NC(=O)[C@@H](N)CCCNC(=N)N)[C@@H](C)CC)C(C)C)[C@@H](C)CC)C(=O)N[C@@H](CS)C(=O)N[C@@H](CCCNC(=N)N)C(=O)O,,"AB5075, RPMI with human serum","median, 40% human serum",,MBC,16 µg/mL
CC(C)C[C@H](NC(=O)[C@H](Cc1ccc(O)cc1)NC(=O)[C@@H]1CCCN1C(=O)[C@H](CCCNC(=N)N)NC(=O)[C@@H]1CCCN1C(=O)[C@H](CCCCN)NC(=O)[C@H](CC(=O)O)NC(=O)[C@@H]1CCCN1C(=O)[C@H](CCCNC(=N)N)NC(=O)C1(N)CCCCC1)C(=O)N1CCC[C@H]1C(=O)N[C@@H](CCCNC(=N)N)C(=O)N1CCC[C@H]1C(=O)N[C@@H](CCCNC(=N)N)C(=O)N1CCC[C@H]1C(=O)N1CCC[C@H]1C(=O)N[C@@H](CCCNC(=N)N)C(=O)N1CCC[C@H]1C(=O)N[C@H](C(=O)N[C@@H](CCCNC(=N)N)C(=O)N[C@@H](CSc1c(F)c(F)c(-c2c(F)c(F)c(SC[C@H](NC(=O)[C@H](CCCNC(=N)N)NC(=O)[C@@H](NC(=O)[C@@H]3CCCN3C(=O)[C@H](CCCNC(=N)N)NC(=O)[C@@H]3CCCN3C(=O)[C@@H]3CCCN3C(=O)[C@H](CCCNC(=N)N)NC(=O)[C@@H]3CCCN3C(=O)[C@H](CCCNC(=N)N)NC(=O)[C@@H]3CCCN3C(=O)[C@H](CC(C)C)NC(=O)[C@H](Cc3ccc(O)cc3)NC(=O)[C@@H]3CCCN3C(=O)[C@H](CCCNC(=N)N)NC(=O)[C@@H]3CCCN3C(=O)[C@H](CCCCN)NC(=O)[C@H](CC(=O)O)NC(=O)[C@@H]3CCCN3C(=O)[C@H](CCCNC(=N)N)NC(=O)C3(N)CCCCC3)C(C)C)C(=O)NN)c(F)c2F)c(F)c1F)C(=O)NN)C(C)C,,19606,,,MBC,30.6 ± 0.6 µg/mL
O=c1c(O)ccc(Br)cc1O,,multidrug-resistant,,,MIC80,≤ 30 µM
CC(C)C[C@@H]1NC(=O)[C@H](CCCN)NC(=O)[C@H](C(C)C)NC(=O)[C@@H]2CCCN2C(=O)[C@H]2Cc3ccccc3CN2C(=O)[C@H](CC(C)C)NC(=O)[C@H](CCCN)NC(=O)[C@H](C(C)C)NC(=O)[C@@H]2CCCN2C(=O)[C@H]2Cc3ccccc3CN2C1=O,bacterial growth,ATCC 19606,"24 h, 37 °C",,MIC50,> 40 µM
CCn1c(-c2ccc(-c3ccc(F)cc3)cc2)c(-c2ccc(-c3ccc(F)cc3)cc2)n(CC)c1=[Se+][Au-][P+](CC)(CC)CC.Cl,bacterial growth,carbapenem-resistant,2 h,,IC50,20 µM
CCCCCCCCCCCCCC(=O)N[C@H](CCN)C(=O)N[C@@H]1C(=O)N[C@@H](CCN)C(=O)N[C@@H](CC(C)C)C(=O)N[C@@H](CCN)C(=O)N[C@H](Cc2ccccc2)C(=O)N[C@@H](CC(C)C)C(=O)N[C@@H](CCN)C(=O)N[C@H](CCN)C(=O)N[C@@H](C(C)C)C(=O)N[C@@H](CC(=O)O)C(=O)O[C@@H]1C,,"ATCC BAA-1605, carbapenem-resistant, neutropenic mice, thigh infection","subcutaneous, 20 mg/kg once daily, 24 h",relative to: vehicle,reduction in bacterial burden,2.4 log10 CFU
Oc1ccc(C(F)(F)F)cc1-c1nc2c(Cl)cc(Cl)cc2[nH]1,colistin potentiator,"AB 1G2, colistin-resistant",5 µM,,colistin MIC,0.25 µg/mL
CC[C@@H](C)[C@@H](NC(=O)[C@@H](C)NC(=O)[C@@H](CCCCN)NC(=O)[C@@H](CC(C)C)NC(=O)[C@@H](C)NC(=O)[C@H](NC(=O)[C@@H](Cc1c[nH]cn1)NC(=O)[C@@H](CC(C)C)NC(=O)[C@H](NC(=O)[C@H](NC(=O)[C@@H](CCCCN)NC(=O)[C@H](NC(=O)[C@@H](C)NC(=O)[C@@H](CO)NC(=O)[C@@H](CCCCN)NC(=O)[C@@H](Cc1ccccc1)NC(=O)[C@H](NC(=O)[C@@H](CCCCN)NC(=O)[C@@H](CC(C)C)NC(=O)[C@@H](Cc1ccccc1)NC(=O)[C@@H](CO)NC(=O)[C@@H](CCCCN)NC(=O)[C@@H](Cc1c[nH]c2ccccc12)NC(=O)[C@@H](CCCCN)NC(C)=O)[C@H](C)O)C(C)C)[C@H](C)O)C(C)C)[C@H](C)O)C(=O)N[C@H](CO)C(=O)N[C@H](CO)C(N)=O,,11 isolates,,relative to: HC50 over geometric mean MIC,therapeutic index,2.57
CCn1c(-c2ccc(OC)cc2)c(-c2ccc(OC)cc2)n(CC)c1=[Se+][Au-][P+](CC)(CC)CC.[Cl-],item: TrxB,carbapenem-resistant,"concentration not given, 2 h",,mRNA level,decreased
CC(C)C[C@H](NC(=O)[C@H](Cc1ccc(O)cc1)NC(=O)[C@@H]1CCCN1C(=O)[C@H](CCCNC(=N)N)NC(=O)[C@@H]1CCCN1C(=O)[C@H](CCCCN)NC(=O)[C@H](CC(=O)O)NC(=O)[C@@H]1CCCN1C(=O)[C@H](CCCNC(=N)N)NC(=O)C1(N)CCCCC1)C(=O)N1CCC[C@H]1C(=O)N[C@@H](CCCNC(=N)N)C(=O)N1CCC[C@H]1C(=O)N[C@@H](CCCNC(=N)N)C(=O)N1CCC[C@H]1C(=O)N1CCC[C@H]1C(=O)N[C@@H](CCCNC(=N)N)C(=O)N1CCC[C@H]1C(=O)N[C@H](C(=O)N[C@@H](CCCNC(=N)N)C(=O)N[C@@H](CSc1c(F)c(F)c(SC[C@H](NC(=O)[C@H](CCCNC(=N)N)NC(=O)[C@@H](NC(=O)[C@@H]2CCCN2C(=O)[C@H](CCCNC(=N)N)NC(=O)[C@@H]2CCCN2C(=O)[C@@H]2CCCN2C(=O)[C@H](CCCNC(=N)N)NC(=O)[C@@H]2CCCN2C(=O)[C@H](CCCNC(=N)N)NC(=O)[C@@H]2CCCN2C(=O)[C@H](CC(C)C)NC(=O)[C@H](Cc2ccc(O)cc2)NC(=O)[C@@H]2CCCN2C(=O)[C@H](CCCNC(=N)N)NC(=O)[C@@H]2CCCN2C(=O)[C@H](CCCCN)NC(=O)[C@H](CC(=O)O)NC(=O)[C@@H]2CCCN2C(=O)[C@H](CCCNC(=N)N)NC(=O)C2(N)CCCCC2)C(C)C)C(=O)NN)c(F)c1F)C(=O)NN)C(C)C,time-kill,,"2 × MIC, 1 h",,reduction in viable count,1.18 log CFU/mL

# A few entries again:
SMILES,test,system,setting,scale,quantity,value
O=c1c(O)ccc(Br)cc1O,,multidrug-resistant,,,MIC80,≤ 30 µM
